Published values from different studies.
Each line is one published result; not all experiments were run side by side.
Organism: Candida albicans

C#Cc1ccc(O)c(C=NNC(=O)c2ccc(COC)cc2)c1
MIC (A39; 48 h): 4 µg/mL

CC(C)C[C@H](NC(=O)[C@H](Cc1c[nH]c2ccccc12)NC(=O)[C@H](CC(C)C)NC(=O)[C@@H](NC(=O)[C@H](CC(C)C)NC(=O)[C@H](CCCNC(=N)N)NC(=O)[C@@H](N)CCCNC(=N)N)[C@@H](C)O)C(=O)N[C@H](C(=O)N[C@@H](CC(C)C)C(=O)N[C@@H](CCCNC(=N)N)C(=O)N[C@@H](CCCNC(=N)N)C(N)=O)[C@@H](C)O
MIC (alveolar fluid isolate, RPMI MOPS; 48 h, 37 °C): 4 µM

CC(C)[C@H](NC(=O)[C@H](CCCNC(=N)N)NC(=O)[C@H](Cc1c[nH]c2ccccc12)NC(=O)[C@H](CCCNC(=N)N)NC(=O)[C@H](Cc1c[nH]c2ccccc12)NC(=O)[C@H](Cc1c[nH]c2ccccc12)NC(=O)[C@H](Cc1c[nH]c2ccccc12)NC(=O)[C@H](CCCNC(=N)N)NC(=O)[C@H](Cc1c[nH]c2ccccc12)NC(=O)[C@H](CCCNC(=N)N)NC(=O)CN)C(N)=O
MIC (broth microdilution; 56452, RPMI 1640-MOPS; 48 h, 30 °C): 8 µM

C[C@@H]1[C@H](O)[C@@H](C)/C=C/C=C/C=C/C=C/C=C/C=C/C=C/[C@H](O[C@@H]2O[C@H](C)[C@@H](O)[C@H](N)[C@@H]2O)C[C@@H]2O[C@](O)(C[C@@H](O)C[C@@H](O)[C@H](O)CC[C@@H](O)C[C@@H](O)CC(=O)O[C@H]1C)C[C@H](O)[C@H]2C(=O)O
MIC (fungal growth; ATCC 90028): 0.31 µg/mL

OC(Cn1cncn1)(Cn1cncn1)c1ccc(F)cc1F
MIC (broth microdilution; 14936, RPMI 1640-MOPS; 48 h, 30 °C): 32 µM

CC[C@H](C)[C@H](NC(=O)CN)C(=O)NCC(=O)N[C@@H](C)C(=O)N[C@H](C(=O)N[C@@H](CC(C)C)C(=O)N[C@@H](CCCCN)C(=O)N[C@H](C(=O)N[C@@H](CC(C)C)C(=O)N[C@H](C(=O)N[C@H](C(=O)NCC(=O)N[C@@H](CC(C)C)C(=O)N1CCC[C@H]1C(=O)N[C@@H](C)C(=O)N[C@@H](CC(C)C)C(=O)N[C@H](C(=O)N[C@@H](CO)C(=O)N[C@@H](Cc1c[nH]c2ccccc12)C(=O)N[C@H](C(=O)N[C@@H](CCCCN)C(=O)N[C@@H](CCCNC(=N)N)C(=O)N[C@@H](CCCCN)C(=O)N[C@@H](CCCNC(=N)N)C(=O)N[C@@H](CCC(N)=O)C(=O)N[C@@H](CCC(N)=O)C(N)=O)[C@@H](C)CC)[C@@H](C)CC)[C@@H](C)O)[C@@H](C)O)C(C)C)C(C)C
MIC (broth microdilution; 58288, RPMI-1640; 48 h, 30 °C): 4 µM

CC[C@H](C)[C@H](NC(=O)CN)C(=O)N[C@@H](CC(C)C)C(=O)N[C@@H](C)C(=O)N[C@@H](C)C(=O)N[C@H](C(=O)N[C@@H](CCCCN)C(=O)N[C@@H](C)C(=O)N[C@H](C(=O)N[C@@H](C)C(=O)N[C@@H](CCCCN)C(=O)N[C@@H](C)C(=O)N[C@@H](C)C(=O)NCC(N)=O)[C@@H](C)CC)[C@@H](C)CC
MIC (ATCC 90029, RPMI MOPS; 24 h, pH 7.0, 33 °C): 128 µg/mL

C#Cc1ccc(O)c(C=NNC(=O)c2ccc(Br)c(Br)c2)c1
MIC (A39; 48 h): 0.5 µg/mL

N=C(N)NCCC[C@H](NC(=O)[C@H](Cc1c[nH]c2ccccc12)NC(=O)[C@H](CCCNC(=N)N)NC(=O)[C@H](Cc1c[nH]c2ccccc12)NC(=O)[C@H](Cc1c[nH]c2ccccc12)NC(=O)[C@H](Cc1c[nH]c2ccccc12)NC(=O)[C@H](CCCNC(=N)N)NC(=O)[C@H](Cc1c[nH]c2ccccc12)NC(=O)[C@@H](N)CCCNC(=N)N)C(N)=O
MIC (broth microdilution; CGMCC 2.209, RPMI 1640-MOPS; 48 h, 30 °C, added: NH4Cl 6 µM): 4 µM

CC(C)[C@H](NC(=O)[C@@H](NC(=O)[C@@H](NC(=O)[C@H](Cc1c[nH]c2ccccc12)NC(=O)[C@H](Cc1c[nH]c2ccccc12)NC(=O)[C@H](CCCNC(=N)N)NC(=O)[C@@H](N)CCCNC(=N)N)[C@@H](C)O)C(C)C)C(N)=O
MIC: 64 µg/mL

CC[C@H](C)[C@H](NC(=O)CN)C(=O)NCC(=O)N[C@@H](C)C(=O)N[C@H](C(=O)N[C@@H](CC(C)C)C(=O)N[C@@H](CCCCN)C(=O)N[C@H](C(=O)N[C@@H](CC(C)C)C(=O)N[C@H](C(=O)N[C@H](C(=O)NCC(=O)N[C@@H](CC(C)C)C(=O)N1CCC[C@H]1C(=O)N[C@@H](C)C(=O)N[C@@H](CC(C)C)C(=O)N[C@H](C(=O)N[C@@H](CO)C(=O)N[C@@H](Cc1c[nH]c2ccccc12)C(=O)N[C@H](C(=O)N[C@@H](CCCCN)C(=O)N[C@@H](CCCNC(=N)N)C(=O)N[C@@H](CCCCN)C(=O)N[C@@H](CCCNC(=N)N)C(=O)N[C@@H](CCC(N)=O)C(=O)N[C@@H](CCC(N)=O)C(N)=O)[C@@H](C)CC)[C@@H](C)CC)[C@@H](C)O)[C@@H](C)O)C(C)C)C(C)C
MIC (broth microdilution; 56452, RPMI 1640-MOPS; 48 h, 30 °C): 4 µM

CC[C@H](C)[C@H](NC(=O)[C@H](C)NC(=O)[C@H](CCCCN)NC(=O)[C@@H](N)CCCNC(=N)N)C(=O)N[C@@H](CCCNC(=N)N)C(=O)N[C@@H](Cc1c[nH]c2ccccc12)C(=O)N[C@@H](Cc1c[nH]c2ccccc12)C(N)=O
MIC: 64 µg/mL
